Experimental data collected from several papers.
Compare with care: the assays were run in different laboratories.
Sequence of UniProt O95819 (whole entry, looked up): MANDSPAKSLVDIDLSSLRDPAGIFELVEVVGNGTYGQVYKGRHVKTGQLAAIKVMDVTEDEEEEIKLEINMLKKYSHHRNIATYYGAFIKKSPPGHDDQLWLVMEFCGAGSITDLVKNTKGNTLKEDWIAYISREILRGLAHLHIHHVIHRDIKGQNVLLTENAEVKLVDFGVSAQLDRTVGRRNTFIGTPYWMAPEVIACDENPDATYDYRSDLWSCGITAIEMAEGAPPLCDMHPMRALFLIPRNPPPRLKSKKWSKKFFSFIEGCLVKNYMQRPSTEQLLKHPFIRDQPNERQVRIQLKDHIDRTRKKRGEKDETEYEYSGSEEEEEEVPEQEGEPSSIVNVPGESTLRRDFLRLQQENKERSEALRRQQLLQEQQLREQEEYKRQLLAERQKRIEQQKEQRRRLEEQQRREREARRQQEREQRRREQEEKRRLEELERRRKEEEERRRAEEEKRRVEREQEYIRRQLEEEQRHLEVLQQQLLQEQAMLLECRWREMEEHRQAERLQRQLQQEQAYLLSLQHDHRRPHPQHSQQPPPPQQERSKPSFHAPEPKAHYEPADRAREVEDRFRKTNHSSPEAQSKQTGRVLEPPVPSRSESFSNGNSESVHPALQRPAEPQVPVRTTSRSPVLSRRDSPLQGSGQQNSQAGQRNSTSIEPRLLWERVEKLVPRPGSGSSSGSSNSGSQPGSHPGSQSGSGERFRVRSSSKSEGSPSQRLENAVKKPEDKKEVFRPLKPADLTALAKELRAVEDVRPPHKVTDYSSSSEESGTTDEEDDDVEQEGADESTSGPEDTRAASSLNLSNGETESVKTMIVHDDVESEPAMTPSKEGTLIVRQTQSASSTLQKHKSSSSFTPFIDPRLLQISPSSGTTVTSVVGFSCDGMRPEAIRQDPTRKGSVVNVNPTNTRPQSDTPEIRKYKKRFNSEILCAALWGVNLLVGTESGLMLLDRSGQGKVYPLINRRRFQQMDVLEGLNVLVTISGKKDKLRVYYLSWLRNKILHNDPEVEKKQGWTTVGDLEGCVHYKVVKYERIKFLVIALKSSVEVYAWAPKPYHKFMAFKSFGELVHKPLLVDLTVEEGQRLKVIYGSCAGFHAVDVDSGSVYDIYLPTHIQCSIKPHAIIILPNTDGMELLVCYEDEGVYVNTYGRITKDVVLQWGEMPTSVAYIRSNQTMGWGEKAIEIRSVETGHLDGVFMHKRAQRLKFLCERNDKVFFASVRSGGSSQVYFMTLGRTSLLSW

| Structure (SMILES) | target | effect on | mode | technique | tested at | quantity | result |
| --- | --- | --- | --- | --- | --- | --- | --- |
| C=CC(=O)N1CCC(COCC(=O)N2CCN(c3nc(-c4cnc(N)nc4C(F)F)nc(N4CCOC[C@@H]4C)n3)CC2)CC1 | Tyrosine-protein kinase ABL1, non-phosphorylated (ABL1, Homo sapiens, UniProt P00519, F317I) | binding | – | competition with immobilised ligand | 1 µM | remaining binding | 76% |
| COc1cc(-c2cncc3c2CN(C)Cc2cc(N4CCNCC4)ccc2-3)cc(OC)c1OC | ABL1 (Homo sapiens, UniProt P00519, M351T) | enzyme activity | inhibitor | – | 1 µM | remaining activity | 71% |
| COc1cc(-c2cc(-c3ccc(N4CCNCC4)cc3)cnc2N)cc(OC)c1OC | ABL1 (Homo sapiens, UniProt P00519, Q252H) | enzyme activity | inhibitor | – | 0.1 µM | inhibition | 87% |
| Cc1cc(NC(=O)c2cccc3cc(-c4cccc5[nH]nc(N)c45)ccc23)ccc1F | ABL1 (Homo sapiens, UniProt P00519, T315I) | enzyme activity | inhibitor | – | 0.1 µM | activity vs control | 98% |
| CNc1ncc2c(/C=C/C(=O)N3CCC(OC)CC3)nn(Cc3cccc(C(F)(F)F)c3)c2n1 | MAP4K4 (Homo sapiens, UniProt O95819) | enzyme activity | inhibitor | radiometric | 1 µM | remaining activity | 86% |
| Cc1cc([C@@H](C)Nc2ccccc2C(=O)O)c2nc(N3CCC(F)(F)CC3)c(C#N)c(=O)n2c1 | Tyrosine-protein kinase ABL1, phosphorylated (ABL1, Homo sapiens, UniProt P00519, E255K) | binding | – | competition with immobilised ligand | 10 µM | remaining binding | 97% |
| C1=C/COCc2cc(ccc2OCCN2CCCC2)Nc2nccc(n2)-c2cccc(c2)COC/1 | ABL1 (Homo sapiens, UniProt P00519, F317I) | binding | – | – | 0.1 µM | remaining binding | 93% |
| CCCCC(=O)Nc1ccc(-c2ccc3ncn(CCC)c(=O)c3c2)cn1 | Tyrosine-protein kinase ABL1, phosphorylated (ABL1, Homo sapiens, UniProt P00519, F317I) | binding | – | competition with immobilised ligand | 0.5 µM | remaining binding | 100% |
| Nc1ncnc2occ(-c3ccc(NC(=O)Nc4cc(C(F)(F)F)ccc4F)cc3)c12 | Tyrosine-protein kinase ABL1, phosphorylated (ABL1, Homo sapiens, UniProt P00519, Q252H) | cell-free assay | inhibitor | – | 20 µM | remaining signal | 1.3% |

Repeated from above:
| Structure (SMILES) | target | effect on | mode | technique | tested at | quantity | result |
| --- | --- | --- | --- | --- | --- | --- | --- |
| Cc1cc([C@@H](C)Nc2ccccc2C(=O)O)c2nc(N3CCC(F)(F)CC3)c(C#N)c(=O)n2c1 | Tyrosine-protein kinase ABL1, phosphorylated (ABL1, Homo sapiens, UniProt P00519, E255K) | binding | – | competition with immobilised ligand | 10 µM | remaining binding | 97% |
